Results pooled from the literature.
Compare with care: the assays were run in different laboratories. ± marks the error that the study gave.
Organism: Toxoplasma gondii

O=c1c2ccc(Oc3ccc(OC(F)(F)F)cc3)cc2[nH]c2cccc(F)c12 — EC50 (parasite growth, beta-galactosidase reporter; HFF, RH): 0.628 nM
COc1ccc(NC(=O)N2CCCN3CCC(c4ccc(C#Cc5cnccn5)cc4)C3C2)cc1 (stereo not drawn) — EC90 (parasite growth; HFF, RH type I luciferase): > 10000 nM
N#Cc1nc(N2CCOCC2)nc(N(Cc2ccc(F)cc2)CC2CCCCC2)n1 — reduction of cyst viability (qPCR plaque; HFF host cells, bradyzoite cysts; 5 µM, 7 days daily; reference: DMSO): ~80%
O=C(CCCN1C(=O)c2cccc3cccc(c23)C1=O)NO — IC50 (parasite growth; HFF; 48 h, intracellular): 50900 nM
N#Cc1nc(N2CCOCC2)nc(N(Cc2ccc(F)cc2)CC2CCCNC2)n1 (stereo not drawn) — reduction of cyst viability (qPCR plaque; HFF host cells, bradyzoite cysts; 5 µM, 7 days daily; reference: DMSO): < 20%
CCCCCCCCC1=C(CCCCCCC(=O)OC)C1 — selectivity index (Vero, RH; reference: CC50 over EC50): > 2.8
COc1ccc(NC(=O)N2CCCN3CCC(c4ccc(C#CC5CCCCC5)cc4)C3C2)cc1 (stereo not drawn) — EC90 (parasite growth, luciferase; HFF, RH type I luciferase): 710 nM
CCCCCCCCC1=C(CCCCCCCCC(=O)OC)C1 — selectivity index (Vero, RH; reference: CC50 over EC50): > 2.3
COc1ccc(NC(=O)N2CCCN3CCC(c4ccc(C#Cc5ccccc5)cc4)C3C2)cc1 (stereo not drawn) — EC90 (parasite growth; HFF, RH type I luciferase): 460 ± 50 nM

Repeated from above:
CCCCCCCCC1=C(CCCCCCC(=O)OC)C1 — selectivity index (Vero, RH; reference: CC50 over EC50): > 2.8
